Assay results from different studies.
± marks the error that the study gave.

Molecule | test | system | conditions | how to read | inhibition [%]
C[n+]1cccc2c(N)cccc21 | refers to: 1-MNA | mouse, muscle | subcutaneous, 25 mg/kg once daily for 5 days, 1 h post-dose | baseline: 1-MNA level at 8 h post-dose | ~40
PHGYFLPGQFAFS | TNF-α expression | peptide, peritoneal macrophages, C57BL/6 mouse | 100 pM, 15 h, pretreated 1 h, optimal dose, with: LPS 100 ng/ml + IFN-γ 20 ng/ml | – | 10
C[C@]12CCCN1CC1=NNC(=O)c3cc(F)cc4[nH]c2c1c34 | PARylation, refers to: PAR | MDA-MB-436 xenograft, mouse, tumour | 1.5 mg/kg single dose, throughout first 12 h | – | ~81
O=C(NCc1ccc(CNS(=O)(=O)c2cccc(C(F)(F)F)c2)cc1)c1ccc(F)cc1 | carrageenan paw oedema | mouse C57BL/6J female | ip, 10 mg/kg daily, 74 h | baseline: vehicle | ~20
CNC(=O)c1cc(Oc2ccc(NC(=O)Nc3ccc(Cl)c(C(F)(F)F)c3)cc2)ccn1 | tumour weight | nude mouse, subcutaneous MHCC97H | oral, 2 mg/kg every 2 days, 10 doses, 21 days, cells transfected | – | 65.5 ± 9.07
AQAGEDPHGYFLPGQFAFS | TNF-α expression | peptide, peritoneal macrophages, C57BL/6 mouse | 100 pM, 15 h, pretreated 1 h, optimal dose, with: LPS 100 ng/ml + IFN-γ 20 ng/ml | – | 21
O=C(c1cc(Cc2n[nH]c(=O)c3ccccc23)ccc1F)N1CCN(C(=O)C2CC2)CC1 | PARylation, refers to: PAR | MDA-MB-436 xenograft, mouse, tumour | 25 mg/kg single dose, initial 0.5 h | – | ~100
AGEDPHGYFLPGQFA | TNF-α expression | peptide, peritoneal macrophages, C57BL/6 mouse | 1 pM, 15 h, pretreated 1 h, optimal dose, with: LPS 100 ng/ml + IFN-γ 20 ng/ml | – | 61
O=C(NCc1ccc(CNS(=O)(=O)c2cccc(Cl)c2)cc1)c1ccc(F)cc1 | carrageenan paw oedema | mouse C57BL/6J female | ip, 10 mg/kg daily, 74 h | baseline: vehicle | ~20

Repeated from above:
Molecule | test | system | conditions | how to read | inhibition [%]
O=C(NCc1ccc(CNS(=O)(=O)c2cccc(Cl)c2)cc1)c1ccc(F)cc1 | carrageenan paw oedema | mouse C57BL/6J female | ip, 10 mg/kg daily, 74 h | baseline: vehicle | ~20
